Measured values collected from several papers.
Parts stem from different laboratories: compare values within a part only. Changes are numbered by the printed parent chain.

Set 1
Target: RNA binding protein fox-1 homolog 2, RRM domain, GST-SBP tag (RBFOX2, Homo sapiens, UniProt O43251-10, residues 100-194)
Technique: RNA Bind-n-Seq
Molecule type: RNA
Sample: in vitro
Concentration: 365 nM
Notes: natural RNA segment, single round, ends assumed
Baseline: no-protein control
Direction: higher = stronger binding
Target sequence (chain): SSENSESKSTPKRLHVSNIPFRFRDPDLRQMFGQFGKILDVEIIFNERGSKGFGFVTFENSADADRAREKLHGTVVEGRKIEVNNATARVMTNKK
| Oligonucleotide | RBNS enrichment (R) |
| --- | --- |
| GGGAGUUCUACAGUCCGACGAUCCAACUCCAGGUCAAAUCUGGAGCUCAAAUCCCAGUGCUCCCUCCCCAGGAGUGGGGCCCCAACUCUUCCAAGAUACCAGCAUUCCUCAAGUCCUCCCAAAACUUCCUACCUGGAAUUCUCGGGUGCCAA | 0.314 |
| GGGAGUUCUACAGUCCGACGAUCAGGUUUUCUGGUUUUAUGACUUUUUGUCUUAUUUUAUUUUUCCUACAUUUCUUUUUUUUUUUUUUUCCUUUAGAAUGCCCUGGAAAUAUAUUUAAGUGGUAAUGAAAAAUUGGAAUUCUCGGGUGCCAA | 8.07 |
| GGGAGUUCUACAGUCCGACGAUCAGCGCGCGCGGCUGAUGGACAUCGUCGAGGACCGACAUAGACCCGAUGCCAAGACCUUAGCCCCAAGGGGAGAUUUCCAAACUCUUAAAAAUGAAGGCUCCCAUGAGUCUUGGAAUUCUCGGGUGCCAA | 0.798 |
| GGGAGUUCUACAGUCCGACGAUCACCCCACCAGGCCAUCCCCAUACCUUCUGGUUUGAAGGCGCUGACACUGGCAGAGAGGUAAAGGGUGGGGCAUUGAGAAUGGAGGCUCCCAGGGUCCCUGCCCACUUCUGUGGAAUUCUCGGGUGCCAA | 0.41 |
| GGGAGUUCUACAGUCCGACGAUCACCUAUUGCAUUCUUAGGCUACUGUGAGGUCUAUGUUUCUUGUACCUGAAAUUGUCCUUUGGACUCCUAGACCCUUCUUCCCCGAUGUGUUUUGUAUGUGGUUAUAAAAUUGGAAUUCUCGGGUGCCAA | 0.982 |
| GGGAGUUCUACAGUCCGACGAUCGAAUGGUACUUAGGGAUGGAAAACGGGCCUGGCUAGAGCUUCGGGUGUGUGUGUCUGUCUGUGUGUAUGCAUACAUAUGUGUGUAUAUAUGGUUUUGUCAGGUGUGUAAAUGGAAUUCUCGGGUGCCAA | 0.762 |
| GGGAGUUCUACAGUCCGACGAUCUGAAGGCACAGGGUUGUGUGGGUGACUAACUUCACACGGCAGAAGAGAUGUUGCUCUAAUGCUCACAAACAGGGCUUGCUCUUUUUUUUAUUUUUAGAGGAAAUACAUUUUGGAAUUCUCGGGUGCCAA | 0.45 |
| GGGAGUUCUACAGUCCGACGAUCCCACCUGGGAUAGCUAGAGCAUCCACACGUGGAAUUCUUUCUUUACUAACAAACGAUAGCUGAUUGAAGGCAACAGGAAAAAAAAAAUCAAAUUGUCCUACUGACGUUGAUGGAAUUCUCGGGUGCCAA | 0.891 |
| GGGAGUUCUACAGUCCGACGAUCGCUUUGUCCAGGUGAGAACAUCCAUAAUUUGGGGCCCUGAGUUUUACCCAGACUCAAGGAGUUGGUAAAGGGUUAAUAGCCAGAUAGUAGAACCAGUGAGGAGAUGCGGCUGGAAUUCUCGGGUGCCAA | 0.711 |
| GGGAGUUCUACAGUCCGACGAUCCUGAGAACCAAAGCAACCCCAGGUGCAUAAUUGUAUAACUUACAGUCUCCCAUCAAGACUACCUCAUAGUCCAGUAGAUCCACUCCGUGACCAAGGACAUCAUGCUCUGUUGGAAUUCUCGGGUGCCAA | 0.408 |
| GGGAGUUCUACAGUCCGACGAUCAUUCAGAUCUCCAGUAGGGUUUUGUAUCUAAUGUAUUUGGCCACCAGUUUUACAUGUAGGUCAUGACUAUACCUGGAUUUUAUCAUUAAGUUAACUUUAAAGUAUAUACAUGGAAUUCUCGGGUGCCAA | 0.424 |
| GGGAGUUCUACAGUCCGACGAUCGGAAACCUCAGAACUGGUCUAUUUGGUGUCGUGGAACCUCUUACUGCUUUCAAUACACGAUUAGUAAUCAACUGUUUUGUAUACUUGUUUUCAGUUUUCAUUUCGACAAAUGGAAUUCUCGGGUGCCAA | 0.321 |

Set 2
Target: ABI1, truncated, D143A, DHFR fusion (Arabidopsis thaliana)
Technique: DHFR PCA, deep sequencing
Sample: yeast
Notes: methotrexate growth selection, single substitutions
Together with: (+)-ABA 17 µM
Baseline: wild-type fitted maximum
Direction: higher = stronger binding
Starting sequence: PYL1, truncated, DHFR fusion (Arabidopsis thaliana); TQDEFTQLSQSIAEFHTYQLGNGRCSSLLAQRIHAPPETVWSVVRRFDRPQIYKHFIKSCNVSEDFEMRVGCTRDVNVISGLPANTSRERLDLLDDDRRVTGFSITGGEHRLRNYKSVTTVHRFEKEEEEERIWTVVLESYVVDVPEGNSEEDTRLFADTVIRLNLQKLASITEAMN
| Substitution | relative binding score [%] |
| --- | --- |
| F5D | 69.6 |
| N165I | -10 |
| L138V | 51.8 |
| R74H | -13.6 |
| D96Q | 12.5 |
| T101F | 98.7 |
| K168T | 86.9 |
| G107P | -1.63 |
| D65A | 75.2 |
| L29G | -7.6 |
| G148L | 26.4 |
| E64V | 73.2 |
| M176V | 77.3 |
| S59L | 31.2 |
| L94T | -4.29 |
| K126C | 94.8 |
| Q51H | 83.5 |

Set 3
Target: CCND1, cyclin fold, Cln2 fusion (human)
Technique: yeast growth competition, sequencing
Sample: yeast
Notes: weak parent motif
Baseline: not given
Direction: higher = stronger binding
Starting sequence: E2F1 docking peptide (human); PPVKRRLDLETDH; partner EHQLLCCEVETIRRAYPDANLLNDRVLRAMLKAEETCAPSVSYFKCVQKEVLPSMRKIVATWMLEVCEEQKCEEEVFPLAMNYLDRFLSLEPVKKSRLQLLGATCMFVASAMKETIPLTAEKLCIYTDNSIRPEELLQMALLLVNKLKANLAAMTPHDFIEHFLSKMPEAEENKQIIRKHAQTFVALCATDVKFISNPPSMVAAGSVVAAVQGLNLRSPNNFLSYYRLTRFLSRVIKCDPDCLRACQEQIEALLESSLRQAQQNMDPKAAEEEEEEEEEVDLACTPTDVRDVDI
| Substitution | normalised enrichment score |
| --- | --- |
| V3P | 0.81 |
| R6I | 0.364 |
| T11V | 0.375 |
| P2C | 0.213 |
| P2E | 0.661 |
| E10D | 1.1 |
| P2M | -0.154 |
| D12L | 0.181 |
| R6S | -0.0174 |
| R5D | 0.382 |
| L7T | 0.454 |
| D12G | 0.365 |
| P2S | 0.604 |
| R5K | 0.103 |
| P1I | 0.67 |
| R6H | 0.499 |
| P2H | 0.151 |

Set 4
Target: RING finger protein unkempt homolog, zinc fingers 1-6, GST-SBP tag (UNK, Homo sapiens, UniProt Q9C0B0, residues 30-357)
Technique: RNA Bind-n-Seq
Molecule type: RNA
Sample: in vitro
Concentration: not given
Notes: RNA with constant flanks, ends assumed
Baseline: input RNA pool
Direction: higher = stronger binding
Target sequence (chain): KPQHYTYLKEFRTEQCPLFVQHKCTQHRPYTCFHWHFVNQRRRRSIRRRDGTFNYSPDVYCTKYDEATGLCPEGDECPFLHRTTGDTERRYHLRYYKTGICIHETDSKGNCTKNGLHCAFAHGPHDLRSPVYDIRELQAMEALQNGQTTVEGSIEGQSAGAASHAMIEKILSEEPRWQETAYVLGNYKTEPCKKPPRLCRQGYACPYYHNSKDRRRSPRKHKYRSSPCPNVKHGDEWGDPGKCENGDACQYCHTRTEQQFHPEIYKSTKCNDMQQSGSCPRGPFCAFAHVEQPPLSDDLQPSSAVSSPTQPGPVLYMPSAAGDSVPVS
| Oligonucleotide | bound/input enrichment [ratio] |
| --- | --- |
| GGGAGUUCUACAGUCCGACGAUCGGAGCUUUAUCUAAGGCUAUUGACAGAGGAACAAGGGGCAUUAGUUUUGUCCUCAGUGCGUCCGUAUUUAAUCUUCUCCCUAUUGUGUUUGAGAUGAUGCUUGUCAGUAGUGUUUUGUAUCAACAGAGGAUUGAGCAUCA | 1.59 |
| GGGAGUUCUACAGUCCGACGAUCCUUGCACGAAUUUUGUAUAUUUCAAAUAUUUCUGUAAAGGUUUCUUCUUUUCUGUCCGAGUGUGGUGUUAAGCCAGAGUCAGUGGUUUGUGUUCUCAUUAAAAUGUUUGUUUAAAUCCUACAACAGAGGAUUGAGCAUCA | 0.299 |
| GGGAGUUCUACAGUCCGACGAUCUUCCCUGGAGAGUUCAUGAAGAGCUGGAAUGACUGCCUCAACAAAGAAGGCUUUGACAAAACCGAUAUCAGUGCAGUUGUGGCAUAUACCAUCGCUGUAAAGGAGGAUGGGGAGCUCAACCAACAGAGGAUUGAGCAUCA | 0.309 |
| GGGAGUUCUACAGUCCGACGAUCUCGGGUGAGGCCUGGCCUGCUGUUCUAAGUAGUCCACUGGCAUUGCCUUCCAAGCCACUUCCGGUCCUUUUGUUUUGUUUUGUUUUUGUUUUUAAAUCAGUGCUCUUACUUCCUGUACAUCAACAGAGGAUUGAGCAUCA | 0.951 |
| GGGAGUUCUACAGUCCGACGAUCAGGAGGAAAAUCAUCUUAUCAGACGAAGGCAAAAUGUAUGGUAGGAAUGAAUUGACCGCCAGAUACAUCAAACUCAGGACAGGCAAGACGAGGACCAGAAAACAGGUGUCUAGUCACAUUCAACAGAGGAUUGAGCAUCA | 0.149 |
| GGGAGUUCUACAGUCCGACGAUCAUUUUUGGAAAGGUUCAAGGGGUGUUUUUCCGCAAGUACACUCAGGCUGAGGGUAAAAAGCCCGGUUUGGUGGGCUGGGUUCAGAACACCGACCGGGGCACCGUGCAAGGGCAACUGCAGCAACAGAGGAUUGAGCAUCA | 0.235 |
| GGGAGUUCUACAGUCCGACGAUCUACCUUAUAUUACAUCUCAUCUCCACAGUAUAUACAAGAAGAGAUGUCCUUCCACCCGGAAAAUUUACAGUUAACUUGAGUGGUUGCCCACGGAAUAGUACCUUCACAGAACACUUGUAUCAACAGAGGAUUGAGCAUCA | 0.545 |
| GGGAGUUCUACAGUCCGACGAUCGGCAAGGUUCGGCUCCUGGCUGAUCCCACUGGGGCCUUUGGGAAGGAGACAGACUUAUUACCCGAUGAUUCGCUGGUGUCCAUCUUUGGGAAUCGACGUCUCAAGAGGUUCUCCAUGGUGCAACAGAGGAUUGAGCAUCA | 0.0645 |
| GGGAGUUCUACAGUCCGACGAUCAAGGAUUCUCUGCCUCGCUUUGUGCGCUCUGAGUUUUAUCAGGAGUUAAUCAAGUAGUAAUUCCGCCAGGCUAUGAAAUCAUCCUGUGAGUUAUUUCCUCCAUAAUAACCCUGCAUUUCCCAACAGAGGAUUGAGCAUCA | 0.209 |
| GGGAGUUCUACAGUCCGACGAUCAUUAAAACAACAAACGAAACCUAGUGAAGCAUCUUUUUAAAAGGCUGCCAGCUUAAUGAAUUCCGAUGUACUUUAAGAGAGAAAGACUGGUUAUUUCUCCUUUGUGUAAGUGAUAAACAACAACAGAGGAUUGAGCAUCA | 0.0996 |
| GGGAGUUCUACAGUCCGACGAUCAUUUAGAAUGUUAAUAAAUUGCUCUGAGUUUCCUCAAGUCCAUUUUGUAAGAUCAGACCACCGGUGGGUGUUGUUUCUUUUAAGUGUGUGUACUGUGUCCAAUGUUACAUUUUUAGAAGUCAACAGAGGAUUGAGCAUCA | 17.6 |

Some of these lines once more (set 2):
| Substitution | relative binding score [%] |
| --- | --- |
| L29G | -7.6 |
| G148L | 26.4 |
| E64V | 73.2 |
| M176V | 77.3 |
| S59L | 31.2 |
